Measurements gathered from unrelated publications.
Every numbered part comes from another study and shows a few of its results, in no order.

Sample 1 — method: protein binding microarray; form: double-stranded DNA, one strand shown; sample: in vitro; tested at: not given; baseline: not given; reading: higher = stronger binding; quantity: E-score
Target: Histone acetyltransferase KAT6A, both winged helices, GST fusion (KAT6A, Homo sapiens, UniProt Q92794, residues 1-181)
Setting: 8-mer, flanks averaged, mean of 2 arrays, mostly near background
Construct (chain): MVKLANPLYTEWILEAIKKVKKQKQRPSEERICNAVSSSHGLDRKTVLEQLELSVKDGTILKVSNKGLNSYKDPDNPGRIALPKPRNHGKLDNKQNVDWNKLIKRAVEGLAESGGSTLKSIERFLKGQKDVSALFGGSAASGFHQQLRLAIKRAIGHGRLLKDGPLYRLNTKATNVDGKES
AGTTCAGA: -0.094
ACGCTTAC: 0.14
ATAAGGCG: 0.201
CCGCTCAC: 0.256
CCCTGAAA: -0.211
GCGCCAAA: 0.244
CTCTCAAA: -0.136
AGTTTAGG: -0.19
GATAGCAA: -0.224
ACAGATCC: -0.00511
GAACATTC: -0.0336
CCCATGAA: -0.192
GTAAGAAC: -0.0477
CACGTCAA: -0.14
AGGCAAAG: -0.233
CGAGACAA: -0.155
TCATACAA: -0.00512
CATCTTCA: -0.177
AACCAAGC: -0.128
ATTCCTTA: -0.179
TTCATCAA: -0.158
AGGTGCAG: -0.16
AACCAGCG: 0.146
TATTGTGA: -0.0549
CACAGGGA: -0.143

Sample 2 — method: RNA Bind-n-Seq; form: RNA; sample: in vitro; tested at: not given; baseline: input RNA pool; reading: higher = stronger binding; quantity: bound/input enrichment
Target: RING finger protein unkempt homolog, zinc fingers 1-6, GST-SBP tag (UNK, Homo sapiens, UniProt Q9C0B0, residues 30-357)
UniProt Q9C0B0, sequence (30-357, looked up): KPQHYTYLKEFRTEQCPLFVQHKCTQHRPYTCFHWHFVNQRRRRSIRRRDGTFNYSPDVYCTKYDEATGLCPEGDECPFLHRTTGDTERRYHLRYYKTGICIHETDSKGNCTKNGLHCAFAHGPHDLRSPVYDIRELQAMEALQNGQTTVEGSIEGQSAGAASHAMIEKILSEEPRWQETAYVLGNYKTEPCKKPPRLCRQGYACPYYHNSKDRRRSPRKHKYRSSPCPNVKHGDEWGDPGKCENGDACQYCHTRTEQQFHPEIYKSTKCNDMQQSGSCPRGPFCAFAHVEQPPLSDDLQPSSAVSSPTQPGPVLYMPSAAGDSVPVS
Setting: RNA with constant flanks, human and mouse sites, ends assumed
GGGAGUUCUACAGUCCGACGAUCUCCUUUGUCCUUGGAUUACUUAAGAGUUCCCAGAAAUACAUUUGCCACCAACAGAGUAGCCAAAUUUAUAAGGAAAAAUGAUUCCCAAUGGAUAUUUGAUGUUUGAGGAUGAAAAUUUUACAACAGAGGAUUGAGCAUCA: 0.279 ratio
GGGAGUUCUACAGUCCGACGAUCGAGAAGAGGAAUGCCAUGAACAGGGCUUUCUGGAGGGAGUUGGUGGAAUGCUUCCAAAAGAUAUCCAAAGACUCGGACUGCCGGGCUGUUGUAGUCUCCGGUGCAGGAAAGAUGUUCACUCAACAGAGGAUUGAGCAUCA: 0.478 ratio
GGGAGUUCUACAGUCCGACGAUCGUAUUGAUAACAGAACAUGGCGACUUGGGAAAUGGAAAGUUUUUGGAUCCAAAGAACAGAAUCUGUUUUAAAUUUGAUCACUUAAGGAAGGAGGCAACUGAUCCAAGACCCUGUGAAGUACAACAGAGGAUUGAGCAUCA: 0.247 ratio
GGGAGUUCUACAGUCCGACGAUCACUGCCAGGCUGUUUCAGCCAGGAAGGCCAAAAUCAAGAGUGAGAUGUAGAAAGUUGUAAAAUAGAAAAAGUGGAGUUGGUGAAUCGGUUGUUCUUUCCUCACAUUUGGAUGAUUGUCAUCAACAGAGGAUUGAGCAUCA: 1.96 ratio
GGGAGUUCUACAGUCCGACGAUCCGAGCUGGAUCCAGAGUUGCAUAUAGACCAAUUUCUGCAUCAGUGUUAUCUCGGCCAGAGACUAGGACUGGAGAGGGCUCUACAGUUUUUAAUGGGGCCCAGAAUGGUGUGUGUCAGCUGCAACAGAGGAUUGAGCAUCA: 0.163 ratio
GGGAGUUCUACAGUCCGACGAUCGAUCGUCAUAUUCCUUUAGAUGAGCCAAUUGAUCUUCUGAAUGUGGCUUUUGUGCCUAAACAAAAAACAGGGCUACCUAUUCCUAACAUAGAAAGAAAACAGCAGAACCACCAUGAGAUCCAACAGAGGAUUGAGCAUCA: 0.753 ratio
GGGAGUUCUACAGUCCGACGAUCGCCAUUACAACUCUCCACAACCUUUUAUUACAUCAAGAAGGAGCUAAAAUGGCAGUGCGUUUAGCUGGUGGGCUGCAGAAAAUGGUUGCCUUGCUCAACAAAACAAAUGUUAAAUUCUUGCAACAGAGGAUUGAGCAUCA: 0.258 ratio
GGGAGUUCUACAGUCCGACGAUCAGAACUCCACCCCCAGAGGAAGUGGAUCUGCUUCUCCAGUUUUUGAGGAGCCAGCCAGGGGUCCAGCACAGCCCUACCCCGCCCCAGUAUCAUGCGAUGGUCCCCCACACCGGUUCCCUGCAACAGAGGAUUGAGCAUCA: 0.198 ratio
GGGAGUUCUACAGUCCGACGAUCGAUAAGAAAAGCUUGUUGGAGACCCGCUUGCAUGUCACUGGUAGAGACCUGAGGUGUCAAAUAGCUGAAACUUUCGGAUUUCAAGAAAAUUACAUCAAGAUCGUAAUAAAUAAGAAACAGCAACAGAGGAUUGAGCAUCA: 0.294 ratio
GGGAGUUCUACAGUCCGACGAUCUUAUCCAAGACUCAACGAAAGACUCCAACGGUUAUUCAUAAACAUUAUCAAAUUCAUCGGAUUCGACAUUUUUAUAUGAGAAAAGUCAAAUUUACUCAACAGAAUUACCAUGACAGACUGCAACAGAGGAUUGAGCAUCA: 0.149 ratio
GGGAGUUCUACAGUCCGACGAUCAGAUCUCAUAAAGAGAGCUCACGGUCCAGGUCAUCUCACAAAGAUUCUCCUAGAGAUGUUAGCAAAAAAGCCAAAAGAUCACCAUCUGGUUCAAGGACACCUAAAAGGUCUAGGCGAUCACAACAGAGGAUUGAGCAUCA: 0.139 ratio

Sample 3 — method: RNA Bind-n-Seq; form: RNA; sample: in vitro; tested at: 365 nM; baseline: no-protein control; reading: higher = stronger binding; quantity: RBNS enrichment (R)
Target: RNA binding protein fox-1 homolog 2, RRM domain, GST-SBP tag (RBFOX2, Homo sapiens, UniProt O43251-10, residues 100-194)
Setting: natural RNA segment, single round, ends assumed
Residues (chain): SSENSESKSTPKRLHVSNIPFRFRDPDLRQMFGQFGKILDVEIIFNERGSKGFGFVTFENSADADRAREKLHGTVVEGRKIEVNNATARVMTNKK
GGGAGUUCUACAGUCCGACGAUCCUAACUCCAAAGCUCUCCACACUAACAUUGUUUUGCUUAUUAUUGCUCCAAAGAUAAUUACCCCAACACCUUAUCAAUGCUAUACUUCCUCUCAUAAUGGCAGUGUAGGUUGGAAUUCUCGGGUGCCAA: 1.02
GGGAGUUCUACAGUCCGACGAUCCUGAGGAUAUUAAUUCCCAUUAUAUAACCAUAAUUCUGUGACUUGUAAUAAACCAAGCUGUACAAUUUAGUUUAUAAUAGCAGUAUCUGAGCUGCUCCAAAAUAUAUAUAUGGAAUUCUCGGGUGCCAA: 0.449
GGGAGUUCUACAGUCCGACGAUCACAAAGGAGCCCAGGGAACUAUGUCCCCAGUAGGUUUAACCCAACCAAACACCAGAGGCUGUUAAUUGUGGGUGGUGCUGUCAGUGUUCCUGACGGCUAUGUGUGUAUUUUGGAAUUCUCGGGUGCCAA: 0.353
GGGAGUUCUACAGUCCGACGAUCUGAUUUUCCUCCCUGGUUUGCAGCUGUUUUCAAAGCCCCCGAUAAUCGCUCUUUUCCACUCCAAGAUGCCCUCAUAAACCAAUGUGGCAAGACUACUGGACUUCUAUCAAUGGAAUUCUCGGGUGCCAA: 0.824
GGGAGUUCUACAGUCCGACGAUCUCACUGUGAGCAUGUCAGAGGCUUUCUGUGUAGAUGUCCUGCCAUGGGUGAUGUGUGAUCUACCAGUGGCUGGGUUCACCCAUCAGUAAUCAGAGCAAGACAAAUGAGAGUGGAAUUCUCGGGUGCCAA: 1.42
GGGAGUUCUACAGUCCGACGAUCGAAAGAGGAAGGAGCUGAAGUUGGUUGGCCCUGCUGCACCCCCUUACAAGGUUGUGAGGCCCUCUCCCCCCCAACUUUGUUUAAGGCAUUUUGGUUUUUUAAAAUCUGUAUGGAAUUCUCGGGUGCCAA: 0.587
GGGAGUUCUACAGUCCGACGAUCUUGCUUAAAACUGUACUCUUUUGCAAAUUAACAAUUUUAUCACUGAUUCAGAGUUAAAAAGAAGACUAACUUUUCAAGCAAAUGCAUCUGUAAAGAUGCUUUAGAUUAGAUGGAAUUCUCGGGUGCCAA: 0.377
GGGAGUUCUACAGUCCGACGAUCUGAUAAAUCAAUAGCUAAAGUUUUCUCCUAACUUUAAGUCUGGUAAAUAUCUCUCAGGAAUGGAAGUGUCAAUGAGUAGUCAGUAUUACUAUACUCUUGUUUGUAAGAAUUGGAAUUCUCGGGUGCCAA: 0.687
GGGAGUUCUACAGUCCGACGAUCUACCAAGAUAGGGAAAGAAAGAAAUAAUGACUGCCAGCCCUGGACCUCAGAAUUCUCAGGUAUGGAAACACUCAAGAGCUGCCUGGUAUGAAGCAAAGAGGAUCCUGGGCUGGAAUUCUCGGGUGCCAA: 1.07
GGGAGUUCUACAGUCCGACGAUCACUGUAAUGUGGGACUAACAUGGAUGUGAUGUCUUAUUUAAAAAGAAAUCAGGAUAAUUAGUAACAAUUCUAGUUCUUUCUCUCCCCGCUCUACUUCUUUUUUUUCCCUCUGGAAUUCUCGGGUGCCAA: 0.455
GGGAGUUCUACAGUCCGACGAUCAACUGCGACGAUUAAUUGUGGAUCUCCCCCUGCCCAUUGCCUGCUUGAGGGGCACCACUACUCCAGCCCAGAAGGAAAGGGGGGCAGCUCAGUGGCCCCAAGAGGGAGCUUGGAAUUCUCGGGUGCCAA: 2.7
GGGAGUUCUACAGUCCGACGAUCCAUAAAAGCAGAAGGUGUGCUAUUCACAGUACCAUGCGAGUAGCCCACAGUUAAUUCCCGGCAGAUUCUUUGGCUGUGUUUUAUCUUUAAUGAACGUUUCUGACUAAUAUUGGAAUUCUCGGGUGCCAA: 0.332

Sample 4 — method: RNA Bind-n-Seq; form: RNA; sample: in vitro; tested at: 1 µM; setting: whole 134-nt RNA, ends assumed; with: 150 mM KCl; baseline: input library; reading: higher = stronger binding; quantity: log2 enrichment
Target: Ras GTPase-activating protein-binding protein 1, RRM domain (G3BP1, Homo sapiens, UniProt Q13283)
UniProt Q13283, sequence (whole entry, looked up): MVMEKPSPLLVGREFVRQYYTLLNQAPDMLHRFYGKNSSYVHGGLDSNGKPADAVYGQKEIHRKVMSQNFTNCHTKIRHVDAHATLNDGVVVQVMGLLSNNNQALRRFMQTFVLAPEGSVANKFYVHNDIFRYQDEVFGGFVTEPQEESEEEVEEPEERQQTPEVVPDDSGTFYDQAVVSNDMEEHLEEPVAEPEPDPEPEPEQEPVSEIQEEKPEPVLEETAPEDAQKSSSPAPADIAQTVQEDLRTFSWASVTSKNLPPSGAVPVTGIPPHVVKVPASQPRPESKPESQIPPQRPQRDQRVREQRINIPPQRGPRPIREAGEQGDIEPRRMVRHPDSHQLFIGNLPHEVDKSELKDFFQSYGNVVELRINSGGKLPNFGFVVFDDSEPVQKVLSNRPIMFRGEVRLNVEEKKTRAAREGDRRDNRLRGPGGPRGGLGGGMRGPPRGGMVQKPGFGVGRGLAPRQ
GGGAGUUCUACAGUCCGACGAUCCUGUGCUACACAUCGUAUGUACCGAAUCGGAAAAAAAGGGGAAAAAAAGGGGAAAAAAAGGGAAAGUAUUAUGUUACGCCGUUCGGAUCUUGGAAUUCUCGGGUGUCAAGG: 0.183
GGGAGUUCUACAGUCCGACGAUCCUGUGCUACACAUCGUAUGUACCGAAUCGGGGAAAAAAAGGGGUUUGGGGAAAAAAAGGGGAAAGUAUUAUGUUACGCCGUUCGGAUCUGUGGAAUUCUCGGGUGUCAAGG: 0.75
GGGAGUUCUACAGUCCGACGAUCCCUGUGCUACACAUCGUAUGUACCGAAUCGGGGUUUUUUGGGUUUUUUGGUUUUUUGGGGAAAGUAUUAUGUUACGCCGUUCGGAUCUGCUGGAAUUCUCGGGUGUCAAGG: -0.302
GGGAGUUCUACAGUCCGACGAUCCUCAAGUCCUGUGCUACACAUCGUAUGUACCGAAUCGGAAGGGGAAGGGAAGGAAAGUAUUAUGUUACGCCGUUCGGAUCUGCACUUCCAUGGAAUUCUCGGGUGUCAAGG: -0.211
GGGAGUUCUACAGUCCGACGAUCUCAAGUCCUGUGCUACACAUCGUAUGUACCGAAUCGGGAAAGGAAAGGAAAGGGAAAGUAUUAUGUUACGCCGUUCGGAUCUGCACUUCCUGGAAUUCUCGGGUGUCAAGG: -0.169
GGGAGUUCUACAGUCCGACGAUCCCUCAAGUCCUGUGCUACACAUCGUAUGUACCGAAUCGGUGGUUUUUGGAGGAAAGUAUUAUGUUACGCCGUUCGGAUCUGCACUUCCAGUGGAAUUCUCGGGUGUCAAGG: -0.157
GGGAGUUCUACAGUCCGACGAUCCUCAAGUCCUGUGCUACACAUCGUAUGUACCGAAUCGGGGUGGUGGGGUGGGGAAAGUAUUAUGUUACGCCGUUCGGAUCUGCACUUCCAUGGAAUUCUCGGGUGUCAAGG: 0.197
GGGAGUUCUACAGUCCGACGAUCAAGUCCUGUGCUACACAUCGUAUGUACCGAAUCGGAAAAAAAGGUGGAAAAAAAGGAAAGUAUUAUGUUACGCCGUUCGGAUCUGCACUUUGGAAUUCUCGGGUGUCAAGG: -0.00694
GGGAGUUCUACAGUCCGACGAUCCAAGUCCUGUGCUACACAUCGUAUGUACCGAAUCGGGAGGGUUUGGGAAAAAGGGAAAGUAUUAUGUUACGCCGUUCGGAUCUGCACUUCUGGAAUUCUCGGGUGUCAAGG: 0.834
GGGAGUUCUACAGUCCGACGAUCAGUCCUGUGCUACACAUCGUAUGUACCGAAUCGGGCCCCGGGGCCCCGGGGCCCCGGGAAAGUAUUAUGUUACGCCGUUCGGAUCUGCACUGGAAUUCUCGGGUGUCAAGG: 0.48

Repeated from above (sample 3):
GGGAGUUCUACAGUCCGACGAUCUUGCUUAAAACUGUACUCUUUUGCAAAUUAACAAUUUUAUCACUGAUUCAGAGUUAAAAAGAAGACUAACUUUUCAAGCAAAUGCAUCUGUAAAGAUGCUUUAGAUUAGAUGGAAUUCUCGGGUGCCAA: 0.377
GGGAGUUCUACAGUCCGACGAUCGAAAGAGGAAGGAGCUGAAGUUGGUUGGCCCUGCUGCACCCCCUUACAAGGUUGUGAGGCCCUCUCCCCCCCAACUUUGUUUAAGGCAUUUUGGUUUUUUAAAAUCUGUAUGGAAUUCUCGGGUGCCAA: 0.587
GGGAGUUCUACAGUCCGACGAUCCUAACUCCAAAGCUCUCCACACUAACAUUGUUUUGCUUAUUAUUGCUCCAAAGAUAAUUACCCCAACACCUUAUCAAUGCUAUACUUCCUCUCAUAAUGGCAGUGUAGGUUGGAAUUCUCGGGUGCCAA: 1.02
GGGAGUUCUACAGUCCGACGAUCUGAUAAAUCAAUAGCUAAAGUUUUCUCCUAACUUUAAGUCUGGUAAAUAUCUCUCAGGAAUGGAAGUGUCAAUGAGUAGUCAGUAUUACUAUACUCUUGUUUGUAAGAAUUGGAAUUCUCGGGUGCCAA: 0.687
